Measurements from different studies.
Parts stem from different laboratories: compare values within a part only. Positions count from the first letter of the parent shown.

Block 1
Target: RNA binding protein fox-1 homolog 2, RRM domain, GST-SBP tag (RBFOX2, Homo sapiens, UniProt O43251-10, residues 100-194)
Method: RNA Bind-n-Seq
Molecule type: RNA
Matrix: in vitro
Concentration: 365 nM
Notes: natural RNA segment, single round, ends assumed
Reference: no-protein control
Reading: higher = stronger binding
Endpoint: RBNS enrichment (R)
Target sequence (chain): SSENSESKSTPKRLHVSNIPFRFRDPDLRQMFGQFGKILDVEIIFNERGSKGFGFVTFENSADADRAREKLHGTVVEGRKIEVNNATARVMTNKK
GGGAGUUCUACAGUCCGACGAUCGUGUGGCAUGGGUUGAGUGUGGCCACCUGCAGGAUGUGCAGGGCUGCCUCAGAAGCUGGCUGGGGACUCUAGCCUCUGUGUUCAUAAAGACAUUAAGAAGUGGAUGGAUGUGGAAUUCUCGGGUGCCAA: 3.96
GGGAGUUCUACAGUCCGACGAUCAAAUCCCAUUCCAGUGUUACUUUCUGUGAAUGCAGUACCAUAUUCUCAUUUUCAAUGACAUUUCAACCACAGGCAGAAAAGACUGUUUACUCCUUGACCCAAAGAUUAAAUGGAAUUCUCGGGUGCCAA: 0.272
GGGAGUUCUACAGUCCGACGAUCCCCAAGAGCCACCAGCUCUUCUUACCAUACCACUUCCUAACUCCUGUAAGGAUGAGCCCAGUUAGUAAGGAUGUUGGUAAUCAGCAGAGACCAUUCUCAAGGGUAGGUGUUGGAAUUCUCGGGUGCCAA: 0.464
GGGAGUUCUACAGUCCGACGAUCUGACUUUUAUGCUGUGGCAACUGUGACAGGCUAUUUUUUAGCAAAGAGUUAGACGUUUGUUAUCAUGCCCCAAAAUAGUUUGAGGUAACAUUUUUGGAGGUAGCUUCGUGUGGAAUUCUCGGGUGCCAA: 0.856
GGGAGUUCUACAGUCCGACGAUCAUAGUGUUGGUGAGUUCAAGUCAUCACGCCAAGUGCUUGCCAUCCUGGUUGCUAUUCUAAGAAUAAUUAGGAGGAGGAACCUAGCCAAUUGCAGCUCAUGUCCGUGGGUGUGGAAUUCUCGGGUGCCAA: 0.187
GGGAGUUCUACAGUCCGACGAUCUGCCAGGAAGCAACAAGGAGAGAGAAACACUAACUAGUCUUCCUUUAUAACCCAUUCAUACUCUCUGGCUGUCCCCAACCUUCAUAGUCUCCUGCAUCCAAAUGUCCUCUUGGAAUUCUCGGGUGCCAA: 0.313
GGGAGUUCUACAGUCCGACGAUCGGCCGAACUCGCCCCACACCUGCGGGCGCCUGGCUGCCGACGCCGGUGGAGGCCACGCCGUCGGUCGGGAACGGUCGCGUCGCCCGGGUCGCCGCCGCCGCCGCCGCCGUUGGAAUUCUCGGGUGCCAA: 0.246
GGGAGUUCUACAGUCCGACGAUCCUGGGUGAUGCUUACGGGAAGGAGAUUGGUAGAUGCAGUCUUUUUUUCCCCCUUAGCACUUGUAUGAGUGAGGAGAAAGUUAGGUAAAGAUUGAAACUAUAAAUUACAGUUGGAAUUCUCGGGUGCCAA: 2.67

Block 2
Target: RING finger protein unkempt homolog, zinc fingers 1-6, GST-SBP tag (UNK, Homo sapiens, UniProt Q9C0B0, residues 30-357)
UniProt Q9C0B0, sequence (30-357, looked up): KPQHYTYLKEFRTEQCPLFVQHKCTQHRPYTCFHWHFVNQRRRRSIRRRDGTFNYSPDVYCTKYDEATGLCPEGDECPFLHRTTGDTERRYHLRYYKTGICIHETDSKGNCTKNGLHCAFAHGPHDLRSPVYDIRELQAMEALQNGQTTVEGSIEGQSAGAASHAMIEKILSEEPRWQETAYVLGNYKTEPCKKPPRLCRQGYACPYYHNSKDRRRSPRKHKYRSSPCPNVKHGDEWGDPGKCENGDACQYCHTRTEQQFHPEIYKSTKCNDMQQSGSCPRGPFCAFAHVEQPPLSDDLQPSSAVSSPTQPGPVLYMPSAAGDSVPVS
Method: RNA Bind-n-Seq
Molecule type: RNA
Matrix: in vitro
Concentration: not given
Notes: RNA with constant flanks, human-mouse chimeric sites, ends assumed
Reference: input RNA pool
Reading: higher = stronger binding
Endpoint: bound/input enrichment
GGGAGUUCUACAGUCCGACGAUCAGAGCCCAGGACGUUGAUGCUACAAAUCCAAAUUACGAAAUUAUGUGUAUGAUCAGAGACUUCAGAGGGAGCUUGGAUUAUAGACCACUAACAACAGCAGAUCCUAUUGAUGAACAUAGGCAACAGAGGAUUGAGCAUCA: 0.544 ratio
GGGAGUUCUACAGUCCGACGAUCAUCAAGUACUUUGGGGACAUCAUUAGUGUGGGACAGAGAUUGUUGCAAGGAGCUCGGAUCUUAGGGAUUCCAGUUAUCAUAACGGAACAAUACCCCAAAGGACUUGGCAGCACCGUUCAACAACAGAGGAUUGAGCAUCA: 0.194 ratio
GGGAGUUCUACAGUCCGACGAUCCCCUCCCGGGCCACCCAACCCCUCCCGGCUCCCCGCCGAGAUCCAGGUUUCUUCUUAUUUCAUAGCAAAUAAGAAAAAUGUUCUACGCACAUUUUGUUCUCAGUAAACGAGGGCCUCUGGCAACAGAGGAUUGAGCAUCA: 0.328 ratio
GGGAGUUCUACAGUCCGACGAUCCUGAAAAACACAGAUAUCAAAGUUGUUGAUUUUGGAAGUGCAACAUAUGAUGAUGAACAUCACAGUACUUUGGUGUCUACCCGGCACUACAGAGCUCCCGAGGUCAUUUUGGCUUUAGGUCAACAGAGGAUUGAGCAUCA: 0.543 ratio

Block 3
Target: CCNE2, cyclin fold, Cln2 fusion (human)
Method: yeast growth competition, sequencing
Matrix: yeast
Notes: weak parent motif
Reference: not given
Reading: higher = stronger binding
Endpoint: normalised enrichment score
Starting sequence: SLBP docking peptide (human); ARYKRKLLINDFG; partner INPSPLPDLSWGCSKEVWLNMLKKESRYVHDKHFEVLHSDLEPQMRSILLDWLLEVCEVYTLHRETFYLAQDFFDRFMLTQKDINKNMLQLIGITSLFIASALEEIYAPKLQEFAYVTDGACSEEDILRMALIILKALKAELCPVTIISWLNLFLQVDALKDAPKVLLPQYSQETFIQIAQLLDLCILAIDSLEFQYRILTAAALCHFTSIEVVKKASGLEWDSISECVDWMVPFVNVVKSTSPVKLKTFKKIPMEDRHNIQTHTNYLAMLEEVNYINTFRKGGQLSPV
L8M: 1.25
K6G: 0.441
L8T: 0.53
F12R: 1.5
L8Y: 0.482
L8R: 0.285
L8A: 0.906
A1P: 0.783

Single results of other studies
PhoQ, residues 284 288 289 292 302 303 AGGLSV — fold induction (PhoP, residues 12 14 15 18 19 STWGI (Escherichia coli, UniProt P23836); Sort-seq, item: YFP reporter; E. coli; PhoQ-PhoP variant library, added: 10 µM Mg2+; reference: high Mg2+ state, higher = stronger signaling): 0.426

For quick reference, copied from above (block 3):
K6G: 0.441
L8R: 0.285
